Assay results gathered from unrelated publications.
Each line is one published result; not all experiments were run side by side.
Organism: Enterococcus faecalis

Structure (SMILES) = CC[C@H](C)[C@H](NC(=O)[C@@H]1CCCN1C(=O)CNC(=O)[C@H](CC(C)C)NC(=O)[C@H](CCCCN)NC(=O)[C@H](CCCNC(=N)N)NC(=O)[C@H](Cc1c[nH]c2ccccc12)NC(=O)[C@H](C)NC(=O)[C@H](CC(N)=O)NC(=O)[C@H](CCCCN)NC(=O)[C@H](CC(C)C)NC(=O)[C@H](CCCCN)NC(=O)[C@H](CC(N)=O)NC(=O)[C@H](CCCNC(=N)N)NC(=O)[C@H](C)NC(=O)[C@H](CCCNC(=N)N)NC(=O)[C@H](CCCNC(=N)N)NC(=O)[C@H](Cc1ccccc1)NC(=O)[C@H](Cc1c[nH]c2ccccc12)NC(=O)CN)C(=O)N[C@H](C(=O)NCC(=O)N1CCC[C@H]1C(=O)N[C@@H](CC(C)C)C(=O)N[C@@H](CC(C)C)C(=O)N[C@H](C(=O)N[C@@H](CCCNC(=N)N)C(=O)O)[C@@H](C)O)C(C)C; system = ATCC 29212; MIC = 4.39 µg/mL
Structure (SMILES) = N=C(N)NCCC[C@H](NC(=O)[C@H](CCCNC(=N)N)NC(=O)[C@H](CCCNC(=N)N)NC(=O)[C@H](CCC(N)=O)NC(=O)[C@H](CCCNC(=N)N)NC(=O)[C@H](CCCNC(=N)N)NC(=O)[C@H](CCCCN)NC(=O)[C@H](CCCCN)NC(=O)[C@H](CCCNC(=N)N)NC(=O)CNC(=O)[C@@H](N)Cc1ccc(O)cc1)C(=O)O; test = broth microdilution; system = drug-resistant clinical isolates, Mueller-Hinton broth; conditions = 18 to 20 h, 37 °C; MIC = > 128 µM
Structure (SMILES) = O=C(c1ccccc1O)c1[nH]c(Cl)c(Cl)c1-n1c(C(=O)c2ccccc2O)cc(Cl)c1Cl; test = microbial growth; system = ATCC29212; MIC = 13.3 µM
Structure (SMILES) = Cc1ccc2[nH]c3c(c2c1)CCCC3NCCc1ccc(O)cc1 (stereo not shown); test = broth microdilution; system = JH2-2; MIC = 16 µg/mL
Structure (SMILES) = CC[C@H](C)[C@H](NC(=O)[C@H](Cc1c[nH]c2ccccc12)NC(=O)[C@H](Cc1ccc(O)cc1)NC(=O)[C@H](CCCCN)NC(=O)[C@H](CC(C)C)NC(=O)[C@@H](N)CO)C(=O)N[C@@H](CCCNC(=N)N)C(=O)N[C@@H](Cc1ccc(O)cc1)C(=O)N[C@@H](CCCCN)C(=O)N[C@@H](CCCNC(=N)N)C(=O)N[C@@H](CCC(N)=O)C(=O)NCC(=O)N[C@@H](C)C(=O)N[C@@H](C)C(=O)N[C@@H](CCCNC(=N)N)C(=O)N[C@@H](Cc1ccccc1)C(N)=O; test = broth dilution; system = KCTC 3511; MIC = 12.5 µM
Structure (SMILES) = CN[C@H](CC(C)C)C(=O)N[C@H]1C(=O)N[C@@H](CC(N)=O)C(=O)N[C@H]2C(=O)N[C@H]3C(=O)N[C@H](C(=O)N[C@H](C(=O)NCc4cn(CC(=O)N[C@H](C(=O)N[C@@H](CCN)C(=O)N[C@H]5CCNC(=O)[C@H]([C@@H](C)O)NC(=O)[C@H](CCN)NC(=O)[C@H](CCN)NC(=O)[C@H](CC(C)C)NC(=O)[C@@H](CC(C)C)NC(=O)[C@H](CCN)NC5=O)[C@@H](C)O)nn4)c4cc(O)cc(O)c4-c4cc3ccc4O)[C@H](O)c3ccc(c(Cl)c3)Oc3cc2cc(c3O[C@@H]2O[C@H](CO)[C@@H](O)[C@H](O)[C@H]2O[C@H]2C[C@](C)(N)[C@H](O)[C@H](C)O2)Oc2ccc(cc2Cl)[C@H]1O; test = broth microdilution; system = vancomycin-resistant, tryptic soy broth; conditions = 20 to 24 h, 37 °C, 0.002% polysorbate 80; MIC = 8 µg/mL
Structure (SMILES) = CC[C@H](C)[C@H](NC(=O)[C@H](CC(C)C)NC(=O)[C@H](CCCNC(=N)N)NC(=O)CNC(=O)CNC(=O)[C@H](CCCCN)NC(=O)[C@H](CCCNC(=N)N)NC(=O)[C@H](CC(C)C)NC(=O)[C@H](CC(C)C)NC(=O)[C@H](CCCNC(=N)N)NC(=O)[C@@H](NC(=O)[C@H](CC(C)C)NC(=O)[C@@H](N)CO)[C@@H](C)O)C(=O)NCC(=O)N[C@@H](Cc1c[nH]c2ccccc12)C(=O)N[C@@H](CCCNC(=N)N)C(=O)N[C@@H](Cc1c[nH]c2ccccc12)C(=O)N[C@@H](CCC(=O)O)C(=O)N[C@@H](CCCCN)C(=O)N[C@H](C(=O)N[C@@H](CCCNC(=N)N)C(=O)N[C@@H](CC(N)=O)C(=O)N[C@@H](Cc1c[nH]c2ccccc12)C(=O)N[C@H](C(=O)N[C@@H](CCCNC(=N)N)C(=O)N[C@@H](CCCNC(=N)N)C(=O)N[C@H](C(=O)N[C@H](C(=O)N[C@@H](CCC(=O)O)C(=O)N[C@@H](CCCCN)C(=O)N[C@@H](CCCNC(=N)N)C(=O)N[C@@H](CCCCN)C(=O)N1CCC[C@H]1C(=O)N[C@@H](CC(N)=O)C(=O)N[C@@H](CCCCN)C(=O)O)[C@@H](C)CC)[C@@H](C)CC)[C@@H](C)CC)[C@@H](C)O; system = ATCC 29212; MIC = 8.79 µg/mL
Structure (SMILES) = CN[C@H](CC(C)C)C(=O)N[C@H]1C(=O)N[C@@H](CC(N)=O)C(=O)N[C@H]2C(=O)N[C@H]3C(=O)N[C@H](C(=O)N[C@H](C(=O)N[C@@H](CCCNC(=N)N)C(N)=O)c4cc(O)cc(O)c4-c4cc3ccc4O)[C@H](O)c3ccc(c(Cl)c3)Oc3cc2cc(c3O[C@@H]2O[C@H](CO)[C@@H](O)[C@H](O)[C@H]2O[C@H]2C[C@](C)(NCc3ccc(OCc4cn(CC(=O)N[C@H](C(=O)N[C@@H](CCN)C(=O)N[C@H]5CCNC(=O)[C@H]([C@@H](C)O)NC(=O)[C@H](CCN)NC(=O)[C@H](CCN)NC(=O)[C@H](CC(C)C)NC(=O)[C@@H](CC(C)C)NC(=O)[C@H](CCN)NC5=O)[C@@H](C)O)nn4)c(OC)c3)[C@H](O)[C@H](C)O2)Oc2ccc(cc2Cl)[C@H]1O; test = broth microdilution; system = vancomycin-resistant; MIC = 46 µM
Structure (SMILES) = CN[C@@H]1[C@H](O)[C@H](NC)[C@H]2O[C@]3(O)[C@H](O[C@@H]2[C@H]1O)O[C@H](C)C[C@H]3NC(=O)Cc1cc(Cl)ccn1; test = microbial growth, broth dilution; system = ATCC33186; MIC = 50 µg/mL
Structure (SMILES) = CN[C@H](CC(C)C)C(=O)N[C@H]1C(=O)N[C@@H](CC(N)=O)C(=O)N[C@H]2C(=O)N[C@H]3C(=O)N[C@H](C(=O)N[C@H](C(=O)NCc4cn(CCCCC(=O)N[C@H](C(=O)N[C@@H](CCN)C(=O)N[C@H]5CCNC(=O)[C@H]([C@@H](C)O)NC(=O)[C@H](CCN)NC(=O)[C@H](CCN)NC(=O)[C@H](CC(C)C)NC(=O)[C@@H](CC(C)C)NC(=O)[C@H](CCN)NC5=O)[C@@H](C)O)nn4)c4cc(O)cc(O)c4-c4cc3ccc4O)[C@H](O)c3ccc(c(Cl)c3)Oc3cc2cc(c3O[C@@H]2O[C@H](CO)[C@@H](O)[C@H](O)[C@H]2O[C@H]2C[C@](C)(N)[C@H](O)[C@H](C)O2)Oc2ccc(cc2Cl)[C@H]1O; test = broth microdilution; system = vancomycin-resistant; MIC = 25 µM
Structure (SMILES) = CN[C@@H]1[C@H](O)[C@H](NC)[C@H]2O[C@]3(O)[C@H](O[C@@H]2[C@H]1O)O[C@H](C)C[C@H]3NC(=O)Cc1ccccn1; test = microbial growth, broth dilution; system = ATCC33186; MIC = 100 µg/mL
Structure (SMILES) = CC[C@H](C)[C@H](N)C(=O)N[C@@H](CCCNC(=N)N)C(=O)N[C@H](C(=O)N[C@@H](Cc1c[nH]c2ccccc12)C(=O)N[C@@H](CCCCN)C(=O)N[C@@H](CCCCN)C(=O)N[C@H](C(=O)N[C@H](C(=O)N[C@@H](CCCNC(=N)N)C(=O)N[C@@H](CCCCN)C(=O)N[C@@H](Cc1c[nH]c2ccccc12)C(=O)N[C@@H](CCCCN)C(=O)N[C@@H](C)C(=O)N[C@H](C(=O)N[C@@H](Cc1c[nH]c2ccccc12)C(=O)N[C@@H](Cc1c[nH]cn1)C(N)=O)[C@@H](C)CC)C(C)C)[C@@H](C)CC)C(C)C; test = broth dilution; system = KCTC 3511; MIC = 6.3 µM
Structure (SMILES) = C#CCNC(=O)[C@H]1NC(=O)[C@H]2NC(=O)[C@H](NC(=O)[C@@H]3NC(=O)[C@H](CC(N)=O)NC(=O)[C@H](NC(=O)[C@@H](CC(C)C)NC)[C@H](O)c4ccc(c(Cl)c4)Oc4cc3cc(c4O[C@@H]3O[C@H](CO)[C@@H](O)[C@H](O)[C@H]3O[C@H]3C[C@](C)(N)[C@H](O)[C@H](C)O3)Oc3ccc(cc3Cl)[C@H]2O)c2ccc(O)c(c2)-c2c(O)cc(O)cc21; test = broth microdilution; system = vancomycin-resistant, tryptic soy broth; conditions = 20 to 24 h, 37 °C, 0.002% polysorbate 80; MIC = 16 µg/mL

A few entries again:
Structure (SMILES) = CC[C@H](C)[C@H](NC(=O)[C@H](Cc1c[nH]c2ccccc12)NC(=O)[C@H](Cc1ccc(O)cc1)NC(=O)[C@H](CCCCN)NC(=O)[C@H](CC(C)C)NC(=O)[C@@H](N)CO)C(=O)N[C@@H](CCCNC(=N)N)C(=O)N[C@@H](Cc1ccc(O)cc1)C(=O)N[C@@H](CCCCN)C(=O)N[C@@H](CCCNC(=N)N)C(=O)N[C@@H](CCC(N)=O)C(=O)NCC(=O)N[C@@H](C)C(=O)N[C@@H](C)C(=O)N[C@@H](CCCNC(=N)N)C(=O)N[C@@H](Cc1ccccc1)C(N)=O; test = broth dilution; system = KCTC 3511; MIC = 12.5 µM
Structure (SMILES) = CN[C@H](CC(C)C)C(=O)N[C@H]1C(=O)N[C@@H](CC(N)=O)C(=O)N[C@H]2C(=O)N[C@H]3C(=O)N[C@H](C(=O)N[C@H](C(=O)NCc4cn(CC(=O)N[C@H](C(=O)N[C@@H](CCN)C(=O)N[C@H]5CCNC(=O)[C@H]([C@@H](C)O)NC(=O)[C@H](CCN)NC(=O)[C@H](CCN)NC(=O)[C@H](CC(C)C)NC(=O)[C@@H](CC(C)C)NC(=O)[C@H](CCN)NC5=O)[C@@H](C)O)nn4)c4cc(O)cc(O)c4-c4cc3ccc4O)[C@H](O)c3ccc(c(Cl)c3)Oc3cc2cc(c3O[C@@H]2O[C@H](CO)[C@@H](O)[C@H](O)[C@H]2O[C@H]2C[C@](C)(N)[C@H](O)[C@H](C)O2)Oc2ccc(cc2Cl)[C@H]1O; test = broth microdilution; system = vancomycin-resistant, tryptic soy broth; conditions = 20 to 24 h, 37 °C, 0.002% polysorbate 80; MIC = 8 µg/mL
